Results gathered from unrelated publications.
Protocols differ between the studies behind these lines. Several values in a cell are separate wells, animals, samples, runs or records. Numbers after ± are the reported error. In brackets after ≈: the same amount, converted by molar mass.
Sequence of UniProt Q9UNQ0 (whole entry, looked up): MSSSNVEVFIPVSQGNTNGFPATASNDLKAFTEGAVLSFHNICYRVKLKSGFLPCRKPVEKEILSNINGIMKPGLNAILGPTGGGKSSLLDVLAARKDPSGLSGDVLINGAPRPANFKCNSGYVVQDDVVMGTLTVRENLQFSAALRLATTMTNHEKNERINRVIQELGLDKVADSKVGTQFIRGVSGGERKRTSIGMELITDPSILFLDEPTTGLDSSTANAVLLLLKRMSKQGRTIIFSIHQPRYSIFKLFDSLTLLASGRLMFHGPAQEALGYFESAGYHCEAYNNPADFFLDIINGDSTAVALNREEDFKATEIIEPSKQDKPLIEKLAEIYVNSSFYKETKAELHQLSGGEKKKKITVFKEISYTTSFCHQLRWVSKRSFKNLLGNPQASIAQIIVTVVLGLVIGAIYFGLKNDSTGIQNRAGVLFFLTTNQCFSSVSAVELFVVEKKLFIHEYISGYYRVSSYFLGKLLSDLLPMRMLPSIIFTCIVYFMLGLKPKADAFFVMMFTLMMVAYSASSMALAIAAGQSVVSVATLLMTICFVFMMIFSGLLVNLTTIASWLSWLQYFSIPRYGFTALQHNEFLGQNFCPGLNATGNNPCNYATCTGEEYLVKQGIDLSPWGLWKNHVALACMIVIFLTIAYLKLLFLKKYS
Sequence of UniProt Q02763 (whole entry, looked up): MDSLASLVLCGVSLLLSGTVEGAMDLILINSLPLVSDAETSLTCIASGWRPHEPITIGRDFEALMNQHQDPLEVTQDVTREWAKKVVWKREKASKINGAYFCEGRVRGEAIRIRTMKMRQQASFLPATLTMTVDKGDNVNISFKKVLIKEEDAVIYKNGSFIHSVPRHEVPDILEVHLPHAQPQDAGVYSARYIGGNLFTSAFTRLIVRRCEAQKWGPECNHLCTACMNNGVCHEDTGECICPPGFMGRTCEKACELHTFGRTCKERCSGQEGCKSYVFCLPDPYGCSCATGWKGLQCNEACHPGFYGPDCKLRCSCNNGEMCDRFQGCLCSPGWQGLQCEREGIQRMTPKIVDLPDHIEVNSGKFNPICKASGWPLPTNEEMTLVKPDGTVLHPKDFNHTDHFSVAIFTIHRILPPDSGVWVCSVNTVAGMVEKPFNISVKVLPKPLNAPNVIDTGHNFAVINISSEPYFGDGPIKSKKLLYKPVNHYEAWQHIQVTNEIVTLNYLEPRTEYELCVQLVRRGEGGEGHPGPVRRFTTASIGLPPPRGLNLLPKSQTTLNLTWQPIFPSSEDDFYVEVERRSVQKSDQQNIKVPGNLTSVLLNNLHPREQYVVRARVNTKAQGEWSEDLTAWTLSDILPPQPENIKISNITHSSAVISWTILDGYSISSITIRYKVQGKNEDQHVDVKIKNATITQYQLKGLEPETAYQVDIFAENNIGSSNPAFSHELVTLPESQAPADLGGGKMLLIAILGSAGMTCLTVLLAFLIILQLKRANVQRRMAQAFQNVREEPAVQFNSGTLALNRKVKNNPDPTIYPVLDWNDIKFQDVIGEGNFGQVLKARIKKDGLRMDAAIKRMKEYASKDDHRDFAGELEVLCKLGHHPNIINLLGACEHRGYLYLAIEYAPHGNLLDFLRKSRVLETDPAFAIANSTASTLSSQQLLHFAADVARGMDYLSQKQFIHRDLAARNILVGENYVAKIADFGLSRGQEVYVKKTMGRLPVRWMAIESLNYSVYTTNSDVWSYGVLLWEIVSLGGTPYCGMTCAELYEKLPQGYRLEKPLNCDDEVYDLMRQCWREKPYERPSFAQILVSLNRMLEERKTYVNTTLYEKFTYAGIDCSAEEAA

| SMILES | tested on | assay | system | setting | how to read | measurement | value |
| --- | --- | --- | --- | --- | --- | --- | --- |
| Cc1ccc(OCCN(C)C)cc1C(=O)N[C@H](C)c1cc(-c2cnn(CC(=O)N(C)C)c2)nc2ccccc12 | African green monkey cells |  |  | 62.5 µM |  | viability | 108% |
| CC(C)(C)C(=O)OCOP(=O)(OCOC(=O)C(C)(C)C)C1CCCN(O)C1=O (stereo not drawn) | HOP-62 |  |  |  |  | log LC50 | > -4 log M |
| COc1ccccc1-c1n[nH]c2nc(N[C@H]3CC[C@H](NS(=O)(=O)CC(C)C)CC3)ncc12 |  | bead binding, competition bead pull-down, measured: LMJF.31.1130 | Leishmania donovani extract | 10 µM | baseline: vehicle | relative abundance | 1.11 |
| COc1ccnc(C(=O)N[C@H]2COC(=O)[C@H](Cc3ccccc3)[C@@H](OC(=O)C(C)C)[C@H](C)OC2=O)c1O | Oncorhynchus mykiss | flow-through |  | 96 h |  | LC50 | 7.3 ng/mL (≈ 0.0142 µM) |
| CCCCCC1=C(NCC)C(=O)C(C/C=C(\C)CCC=C(C)C)=C(O)C1=O | human peripheral lymphocytes |  |  | 10 µg/mL, 3 h, without S9, harvest 27 h |  | cytostasis | 3% |
| Cc1nc2cccc(OCC(C)(C)C(=O)NC(C)C)c2c(N)c1C(=O)[O-].[Na+] | Salmonella typhimurium |  | TA100 | 2.0 mg per plate, without S9, plate incorporation |  | revertant colonies per plate | 135 ± 13 |
| Cc1ccc(N(C)C2(C)CN(C)C2)cc1C(=O)N[C@H](C)c1cc(-c2cnn(C)c2)nc2ccccc12 | Vero E6 |  |  | 15.62 µM |  | viability | 101% and 99.8% and 97.8% |
| Cc1cc(C(=O)Nc2nc3cccc(C)c3n2[C@H]2CCCCN(C(=O)/C=C/CN(C)C)C2)ccn1 | Trypanosoma brucei |  | CLK1 C215S overexpressing | 150 x EC50 |  | survival | 2.92% and 0.396% and 0.209% |
| COc1ccc2c3c1O[C@H]1[C@@H](O)C=C[C@H]4[C@@H](C2)N(CC2CCC2)CC[C@@]341 |  |  | octanol/buffer | 1 h, pH 7.4 |  | logD | 1.39 |
| O=C1NC2(CC2)COc2ncc(F)cc2[C@H]2COCCN2c2ccn3ncc1c3n2 |  |  | Sprague-Dawley rats, female, blood | oral, 20 mg/kg/day, end of treatment, 4-week subacute toxicity |  | eosinophil percentage | 1.1 ± 0.25% |
| Cc1ccc(NC2(C)CN(C)C2)cc1C(=O)N[C@H](C)c1cc(-c2cnn(C)c2)nc2ccccc12 | Vero E6 |  |  | 125 µM |  | viability | 110% and 107% and 93.3% |
| COc1ccccc1-c1n[nH]c2nc(NC3CCN(C(=O)Cc4ccc(F)cc4F)CC3)ncc12 |  | bead binding, competition bead pull-down, measured: LMJF.21.1760 | Leishmania donovani extract | 10 µM | baseline: vehicle | relative abundance | 1.23 |
| CC(=O)NCCCC[C@@H]1NC(=O)[C@H](Cc2c[nH]c3c(C)cccc23)NC(=O)[C@H]([C@@H](C)O)NC(=O)[C@H](CC(N)=O)NC(=O)[C@@H](NC(C)=O)C(C)(C)SSC(C)(C)[C@@H](C(=O)N[C@@H](Cc2ccc(OCCN)cc2)C(=O)N[C@@H](Cc2ccc3ccccc3c2)C(=O)NC2(C(=O)N[C@@H](CCC(=O)O)C(=O)N[C@@H](CC(N)=O)C(=O)N[C@@H](Cc3cccnc3)C(=O)N(C)CC(N)=O)CCOCC2)NC1=O | ABCG2 (Homo sapiens, UniProt Q9UNQ0) | transport, inhibitor | LLC-PK1 expressing ABCG2 | 0.0558 µM, 90 min, together with: [3H]prazosin |  | efflux ratio | 9.34 |
| CC(C)N1CN(C2c3ccccc3CSc3ccccc32)n2cc(C(=O)O)c(=O)c(O)c2C1=O (stereo not drawn) |  |  | dog cells |  |  | CC50 | 7 µM |
| CC[C@H](C)[C@H](NC(=O)[C@H](CO)NC(=O)[C@H](Cc1ccc(O)cc1)NC(=O)[C@H](Cc1ccc(O)cc1)NC(=O)[C@H](CC(N)=O)NC(=O)CNC(=O)[C@H](CO)NC(=O)[C@H](Cc1ccc(O)cc1)NC(=O)[C@H](CO)NC(=O)[C@H](CO)NC(=O)[C@H](CC(N)=O)NC(=O)COCCOCCNC(=O)CN1CCN(CC(=O)O)CCN(CC(=O)O)CCN(CC(=O)O)CC1)C(=O)N[C@@H](CC(C)C)C(N)=O [copper-64 labelled] |  | dynamic PET | KPC mouse Ptf1a-CreER tdTomato, pancreas | intravenous, 4.6 MBq/mouse, 0.1 min, 84 d after tamoxifen |  | tissue uptake | 0.36 %ID/mL |
| Oc1ccc2c3c1OC1C(O)C=CC4C(C2)N(CC2CCC2)CCC341 (stereo not drawn) |  | PAMPA-BBB | porcine brain lipid | 500 µM, 4 h, pH 7.4, 1% DMSO |  | Papp | 18.3 ×10⁻⁶ cm/s |
| Cc1ccc(N(C)CCN2CCOCC2)cc1C(=O)N[C@H](C)c1cc(-c2cnn(C)c2)nc2ccccc12 | Vero E6 |  |  | 125 µM |  | viability | 66.9% and 79.8% and 53.5% |
| CS(C)(=O)=Nc1ccc(-c2ccc(-c3nc4cc(O[C@@H]5CO[C@H]6[C@@H]5OC[C@H]6O)[nH]c4cc3F)cc2)cc1 | TEK (Homo sapiens, UniProt Q02763) | enzyme activity, inhibitor |  | 10 µM |  | inhibition | -19% |

Excerpt of the above:
| SMILES | tested on | assay | system | setting | how to read | measurement | value |
| --- | --- | --- | --- | --- | --- | --- | --- |
| CC(C)N1CN(C2c3ccccc3CSc3ccccc32)n2cc(C(=O)O)c(=O)c(O)c2C1=O (stereo not drawn) |  |  | dog cells |  |  | CC50 | 7 µM |
| CC[C@H](C)[C@H](NC(=O)[C@H](CO)NC(=O)[C@H](Cc1ccc(O)cc1)NC(=O)[C@H](Cc1ccc(O)cc1)NC(=O)[C@H](CC(N)=O)NC(=O)CNC(=O)[C@H](CO)NC(=O)[C@H](Cc1ccc(O)cc1)NC(=O)[C@H](CO)NC(=O)[C@H](CO)NC(=O)[C@H](CC(N)=O)NC(=O)COCCOCCNC(=O)CN1CCN(CC(=O)O)CCN(CC(=O)O)CCN(CC(=O)O)CC1)C(=O)N[C@@H](CC(C)C)C(N)=O [copper-64 labelled] |  | dynamic PET | KPC mouse Ptf1a-CreER tdTomato, pancreas | intravenous, 4.6 MBq/mouse, 0.1 min, 84 d after tamoxifen |  | tissue uptake | 0.36 %ID/mL |
| Oc1ccc2c3c1OC1C(O)C=CC4C(C2)N(CC2CCC2)CCC341 (stereo not drawn) |  | PAMPA-BBB | porcine brain lipid | 500 µM, 4 h, pH 7.4, 1% DMSO |  | Papp | 18.3 ×10⁻⁶ cm/s |
